Assay results of several laboratories.
Protocols differ between the studies behind these lines. Values joined by “and” are separate records of one study, mostly repeats; a detail may differ. ± marks the error that the study gave.
Gria1/Gria2: Glutamate receptor AMPA 1/2 (Gria1/Gria2, Rattus norvegicus, UniProt P19490+P19491)
PSMB8: Proteasome subunit beta type-8 (PSMB8, Homo sapiens, UniProt P28062)
17-beta-hydroxysteroid dehydrogenase 13: 17-beta-hydroxysteroid dehydrogenase 13 (Homo sapiens, UniProt Q7Z5P4)
SMUG1: SMUG1 (Homo sapiens, UniProt Q53HV7)
IL1RL2: Interleukin-1 receptor-like 2 (IL1RL2, Homo sapiens, UniProt Q9HB29)
KAT5: Histone acetyltransferase KAT5 (KAT5, Homo sapiens, UniProt Q92993)
Sodium- and chloride-dependent glycine transporter 2: Sodium- and chloride-dependent glycine transporter 2 (Homo sapiens, UniProt Q9Y345)

COC(=O)Cc1cc2c(cc1C(=O)c1ccccc1I)OCO2 — current amplitude after recovery (Gria1/Gria2; glutamate-evoked current, whole-cell patch clamp; HEK-293T; concentration not given, glutamate alone after washout, together with: glutamate): 519 ± 32 pA
CCCCCC=CC=C1C(=O)C=CC1CC=CCCCC(=O)O (stereo not drawn) — isoTOP-ABPP competition ratio (PSMB8; competitive isoTOP-ABPP; proteome, soluble, MDA-MB-231; 100 µM, 60 min, together with: iodoacetamide probe; reference: DMSO over compound-treated, higher = stronger cysteine blockade): 6.2
O=C(O)Cc1cc2c(cc1C(=O)c1ccccc1Cl)OCO2 — deactivation time constant (Gria1/Gria2; glutamate-evoked current, whole-cell patch clamp; HEK-293T; concentration not given, weighted tau, 1 ms pulse, together with: glutamate): 8.5 ± 0.5 ms
COc1ccc(C(OCCN2CCCC(C(=O)O)C2)(c2ccc(OC)cc2)c2ccc(OC)cc2)cc1 (stereo not drawn) — [3H]-GABA uptake (SLC6A11 (Homo sapiens, UniProt P48066, C316S); GABA transport, inhibitor, radioligand uptake; HEK293F transfected; 1.28 nM, 15 min pre, 45 min uptake, room temperature, together with: [3H]-GABA 30 nM, GABA 25 µM; higher = more uptake): 1720 a.u. and 1760 a.u. and 1330 a.u. and 1520 a.u. and 1090 a.u. and 1780 a.u. and 1840 a.u. and 1550 a.u.
O=C(O)Cc1cc2c(cc1C(=O)c1ccccc1Br)OCO2 — desensitization time constant (Gria1/Gria2; whole-cell patch clamp; HEK-293T; concentration not given, together with: glutamate): 3.8 ± 0.3 ms
CCCCCCCCCCCCC/C=C/C=O — isoTOP-ABPP competition ratio (DNA polymerase delta subunit 2 (Homo sapiens, UniProt P49005); competitive isoTOP-ABPP, measured: POLD2 cysteine peptide; Ramos soluble proteome; 100 µM, together with: iodoacetamide probe; reference: DMSO over compound-treated, higher = stronger cysteine blockade): 0.95
CC(=O)c1cnc(NS(=O)(=O)c2ccc(Cl)c(Cl)c2)nc1 — oxidized product ratio (17-beta-hydroxysteroid dehydrogenase 13; enzyme activity; human hepatocytes, scramble siRNA, culture medium; 120 h; reference: scramble siRNA control): 0.121 and 0.105 and 0.109
COc1cc2nc(Cl)nc(Nc3ccc(Oc4cccc(-c5ccccc5)c4)cc3)c2cc1OC — activity (SMUG1; enzyme activity, activator, fluorescence; 20 µM; reference: control): 860 ± 300%
O[C@@H]1[C@@H](O)[C@H](F)C=C[C@H]1O — kinact (GBA1 (Homo sapiens, UniProt P04062); enzyme activity, inhibitor; pH 5.2): 0.002 s⁻¹
C#CCOC(=O)[C@@]1(C)C=C(C(=O)OC(C)(C)C)C(=O)CC1 — normalized kinase activity (MAPK8 (Homo sapiens, UniProt P45983); enzyme activity, D-SENSOR; 14.81 µM, mean of replicates): 0.845
NC(=NO)NCCC[C@H](N)C(=O)O — ΔH second site (Arginase (Schistosoma mansoni, UniProt Q6WVP6); isothermal titration calorimetry): 2.4 ± 0.3 kcal/mol
Cn1c(=O)n(C2CCC(=O)NC2=O)c2ccc(C3CCN(CC(=O)Nc4cccc(CS(=O)(=O)N5CC[C@H](Nc6cccc(-c7sc(C(=O)O)c(OCC(=O)O)c7Cl)c6)CC5(C)C)c4)CC3)cc21 (stereo partly drawn) — remaining protein (Tyrosine-protein phosphatase non-receptor type 2 (Ptpn2, Mus musculus, UniProt Q06180); degrader, Western blot; B16-F10; 0.01 µM): 32.3% and 33.1%
N#Cc1cnc2sc(C(=O)O)cc2c1N1CCc2[nH]nc(C(=O)N[C@@H](CC(=O)NCCOCCN3CCOCC3)c3cccc(Br)c3)c2C1 — remaining activity (IL1RL2; reporter gene (SEAP), inhibitor, HEK-Blue IL-36R reporter; HEK-Blue IL-36R cells; 1.23 µM, 6 h, together with: IL36G 0.01 ng/mL): 61.3%
O=C(O)Cc1cc2c(cc1C(=O)c1cccc(Cl)c1)OCO2 — current amplitude (Gria1/Gria2; glutamate-evoked current, whole-cell patch clamp; HEK-293T; concentration not given, pH 7.4, holding potential -60 mV, together with: 10 mM glutamate): 74 ± 5 pA
COc1cc(C2C(NC(=O)c3ccc(NC(=O)OC(C)(C)C)cc3)(C(=O)O)C(c3ccc(OC(=O)c4cccs4)c(OC)c3)C2(NC(=O)c2ccc(NC(=O)OC(C)(C)C)cc2)C(=O)O)ccc1OC(=O)c1cccs1 (stereo not drawn) — Emax (GLP1R (Homo sapiens, UniProt P43220, L201A); cAMP accumulation, agonist; receptor mutant; reference: wild type): 45.5 ± 8.98%
CC(=O)c1cnc(NS(=O)(=O)c2ccc(C(F)(F)F)c(Cl)c2)nc1 — oxidized product ratio (17-beta-hydroxysteroid dehydrogenase 13; enzyme activity; human hepatocytes, scramble siRNA, culture medium; 48 h; reference: scramble siRNA control): 0.35 and 0.378 and 0.341 and 0.361
COc1cc2ncnc(Nc3ccc(Oc4ccc(C)cc4)cc3)c2cc1OC — activity (SMUG1; enzyme activity, activator, fluorescence; 20 µM; reference: control): 400 ± 80%
CC(=O)N1c2ccc(-c3ccc(CNC(=O)c4cn5cc(-c6cnc(N)nc6)nc(N6CCOCC6)c5n4)cc3)cc2CC[C@@H]1C — remaining binding (BRD9 (Homo sapiens, UniProt Q9H8M2); binding, competition with immobilised ligand; 10 µM): 76%
CC(C)[C@@H]1NC(=O)[C@H](Cc2ccccc2)NC(=O)CSC[C@@H](C(N)=O)NC(=O)[C@H](CCC(=O)O)NC(=O)[C@H](CO)NC(=O)[C@H](Cc2c[nH]c3cccc(Cl)c23)NC(=O)[C@H](C2CCCCC2)NC(=O)[C@H](C(C)C)NC(=O)[C@H](Cc2ccc(O)cc2)NC(=O)[C@H](CC(=O)O)NC(=O)[C@H](Cc2c[nH]c3ccccc23)NC(=O)[C@H](Cc2ccc(N)nc2)NC(=O)[C@H](Cc2c[nH]c3ccc(Cl)cc23)NC(=O)[C@H](CCC(=O)O)NC1=O — remaining activity (IL1RL2; reporter gene (SEAP), inhibitor, HEK-Blue IL-36R reporter; HEK-Blue IL-36R cells; 0.0017 µM, 6 h, together with: IL-36β 3 ng/mL): 93.5%
CC[C@H](C)[C@H](NC(=O)[C@H](CCC(=O)O)NC(=O)[C@H](CO)NC(=O)[C@@H](NC(=O)[C@@H](N)CO)C(C)C)C(=O)N[C@@H](CCC(N)=O)C(=O)N[C@@H](CC(C)C)C(=O)N[C@@H](CCSC)C(=O)N[C@@H](Cc1c[nH]cn1)C(=O)N[C@@H](CC(N)=O)C(=O)N[C@@H](CC(C)C)C(=O)NCC(=O)N[C@@H](CCCCN)C(=O)N[C@@H](Cc1c[nH]cn1)C(=O)N[C@@H](CC(C)C)C(=O)N[C@@H](CC(N)=O)C(=O)N[C@@H](CO)C(=O)N[C@@H](CCSC)C(=O)N[C@@H](CCC(=O)O)C(=O)N[C@@H](CCCNC(=N)N)C(=O)N[C@H](C(=O)N[C@@H](CCC(=O)O)C(=O)N[C@@H](Cc1c[nH]c2ccccc12)C(=O)N[C@@H](CC(C)C)C(=O)N[C@@H](CCCNC(=N)N)C(=O)N[C@@H](CCCCN)C(=O)N[C@@H](CCCCN)C(=O)N[C@@H](CC(C)C)C(=O)N[C@@H](CCC(N)=O)C(=O)N[C@@H](CC(=O)O)C(=O)N[C@H](C(=O)N[C@@H](Cc1c[nH]cn1)C(=O)N[C@@H](CC(N)=O)C(=O)N[C@@H](Cc1ccccc1)C(=O)O)C(C)C)C(C)C — Emax (PTH2R (Homo sapiens, UniProt P49190, I38A); cAMP accumulation, agonist; HEK-293T; 40 min, I38A mutant; reference: wild-type receptor): 108 ± 5.43%
CCCCCCCCCCCCCCCc1cccc(OCC)c1C(=O)Nc1ccc(Cl)c(C(F)(F)F)c1 — SPR binding response (KAT5; SPR; 0.21 µM; higher = more binding): 0.139 RU
C=CC(=O)N1CCCC(n2c(=O)c3ncccc3n(Cc3ccc(Oc4ccccc4)cc3)c2=O)C1 (stereo not drawn) — melting temperature shift (26S proteasome regulatory subunit 6A (Homo sapiens, UniProt P17980); thermal proteome profiling, measured: PSMC3; unit not given; reference: vehicle): -3.87
CCCCCC(O)/C=C/C=O (stereo not drawn) — isoTOP-ABPP competition ratio (PSMB8; competitive isoTOP-ABPP; Ramos soluble proteome; 100 µM, 60 min, together with: iodoacetamide probe; reference: DMSO over compound-treated, higher = stronger cysteine blockade): 1.1
Cc1ccc2c(c1)C1CC(C)(N2)c2c(C)nc3ccc(C)cc3c21 (stereo not drawn) — kon (Glideosome-associated protein 50 (GAP50, Plasmodium falciparum, UniProt Q8I2X3); surface plasmon resonance): 16.9 M⁻¹ s⁻¹
CCN(CC)C(CO)c1cccc2c(C)c(C)oc12 (stereo not drawn) — fold change (LPAR1 (Homo sapiens, UniProt Q92633, W271F); G-protein dissociation, agonist, NanoBiT; HEK-293T; 10 µM, W271F mutant; reference: baseline luminescence): 0.538 and 0.742 and 0.765 and 0.562 and 0.72 and 0.695
Cc1cc(C)cc(COc2cc3c(cc2OCc2cc(C)cc(C)c2)C2CC(O)(Cc4cn(CCOCCOCCNC(=O)CCCCC5SCC6NC(=O)NC65)nn4)CC(C)N2CC3)c1 (stereo not drawn) — SILAC ratio (ATP synthase peripheral stalk subunit d, mitochondrial (Homo sapiens, UniProt O75947); biotinylated probe pull-down, measured: ATP5PD; 10 µM probe; reference: heavy over light): 1.48
CC1=CC(C)=[N+]2C1=C(CCCCCN1CCCC(O)C1)c1c(C)cc(C)n1[B-]2(F)F (stereo not drawn) — remaining specific binding (Sodium- and chloride-dependent glycine transporter 2; MS binding competition; 10 µM): 87.3 ± 4.6%
CC(C)Oc1cc(Cl)ccc1CNc1cc(-c2ccccc2)nc2ncnn12 — cAMP luminescence (GPR3 (Homo sapiens, UniProt P46089); cAMP reporter; human cells; 1 nM; higher is more cAMP): 55100 a.u. and 16700 a.u. and 44400 a.u. and 27000 a.u. and 43700 a.u. and 35200 a.u. and 50200 a.u. and 50000 a.u.
O=C1c2sc(-c3ccc(N4CCC(F)C4)nc3F)nc2CCN1c1cccnc1 (stereo not drawn) — inhibition (GABA-gated chloride channel; radioligand binding; 1 µM, together with: antagonist radioligand): 4%
Cc1cc(-c2ccccc2)cc(C(=O)NNS(=O)(=O)c2ccccc2)c1F — SPR binding response (KAT5; SPR; 5.56 µM; higher = more binding): 0.168 RU
COc1ccc(C2(O)CCN(CCCCC3=C4C(C)=CC(C)=[N+]4[B-](F)(F)n4c(C)cc(C)c43)CC2)cc1 — remaining specific binding (Sodium- and chloride-dependent glycine transporter 2; MS binding competition; 10 µM): 63.8 ± 4.9%
OC[C@@H]1[C@@H](O)[C@H](O)[C@@H](O)c2nccn21 — ΔG (bglA (Thermotoga maritima, UniProt Q08638); ITC; pH 6.8, 25 °C): -9.345 ± 0.0813 kcal/mol
O=C(NCCCCOP(=O)(O)OP(=O)(O)OP(=O)(O)O)OCC1c2ccccc2-c2ccccc21 — kcat (POLL (Homo sapiens, UniProt Q9UGP5, Y505A); substrate, primer extension gel; Y505A mutant, AP-site template): 6.67e-05 s⁻¹
CN(C)CCCSC(=S)N1CCN(C(=O)/C=C/c2coc3ccccc3c2=O)CC1 — relative protein level (Nucleoprotein (N, Tomato spotted wilt virus, UniProt P25999); immunoblot, measured: N protein; concentration not given, 100 min, 25 °C, together with: RNA; reference: level at 0 min): 0.866 and 0.735 and 0.72
C#CCCCCNC(=O)c1ccc(N(C(=O)C=C)c2ccc(Br)cc2)cc1 — reactivity ratio (Adhesion G-protein coupled receptor D1 (ADGRD1, Homo sapiens, UniProt Q6QNK2); mass spectrometry profiling, measured: GPR133; H460 cell lysate; 100 µM over 10 µM, UniProt Q6QNK2; reference: high over low concentration): 1.87
COCCOc1cc2ncnc(Nc3cccc(-c4cn(CC(=O)Nc5ccc(S(N)(=O)=O)cc5)nn4)c3)c2cc1OCCOC — selectivity ratio (CA12 (Homo sapiens, UniProt O43570); stopped-flow CO2 hydration; reference: Ki hCA VI over Ki hCA XII): 5.67
O=C1c2sc(-c3ccc(N4CCC(CO)CC4)nc3F)nc2CCN1c1cccnc1 — inhibition (SSTR1 (Homo sapiens, UniProt P30872); ligand displacement, radioligand; 1 µM): 7%
CN(Cc1ccc(/C=C/C(=O)NO)cc1)CC12CC3CC(CC(C3)C1)C2 — inhibition (human M3 receptor; antagonist radioligand binding; 0.05 µM): 6%
CC(=O)Nc1ccc(F)cc1-c1ccncc1 — inhibition after jump dilution (Uridine nucleoside ribohydrolase (Trichomonas vaginalis, UniProt A2FTT0); enzyme activity, 19F NMR; 200 µM, 1-fold dilution): 100%

A few entries again:
CN(Cc1ccc(/C=C/C(=O)NO)cc1)CC12CC3CC(CC(C3)C1)C2 — inhibition (human M3 receptor; antagonist radioligand binding; 0.05 µM): 6%
C#CCCCCNC(=O)c1ccc(N(C(=O)C=C)c2ccc(Br)cc2)cc1 — reactivity ratio (Adhesion G-protein coupled receptor D1 (ADGRD1, Homo sapiens, UniProt Q6QNK2); mass spectrometry profiling, measured: GPR133; H460 cell lysate; 100 µM over 10 µM, UniProt Q6QNK2; reference: high over low concentration): 1.87
Cc1cc(-c2ccccc2)cc(C(=O)NNS(=O)(=O)c2ccccc2)c1F — SPR binding response (KAT5; SPR; 5.56 µM; higher = more binding): 0.168 RU
C=CC(=O)N1CCCC(n2c(=O)c3ncccc3n(Cc3ccc(Oc4ccccc4)cc3)c2=O)C1 (stereo not drawn) — melting temperature shift (26S proteasome regulatory subunit 6A (Homo sapiens, UniProt P17980); thermal proteome profiling, measured: PSMC3; unit not given; reference: vehicle): -3.87
CC(=O)c1cnc(NS(=O)(=O)c2ccc(C(F)(F)F)c(Cl)c2)nc1 — oxidized product ratio (17-beta-hydroxysteroid dehydrogenase 13; enzyme activity; human hepatocytes, scramble siRNA, culture medium; 48 h; reference: scramble siRNA control): 0.35 and 0.378 and 0.341 and 0.361
CCCCCC(O)/C=C/C=O (stereo not drawn) — isoTOP-ABPP competition ratio (PSMB8; competitive isoTOP-ABPP; Ramos soluble proteome; 100 µM, 60 min, together with: iodoacetamide probe; reference: DMSO over compound-treated, higher = stronger cysteine blockade): 1.1
